{"data": "Experimental data collected from several papers", "note": "Numbered parts are unrelated; each lists some results of a single study.", "sequence of UniProt Q5XXA6 (whole entry, unmodified, looked up)": "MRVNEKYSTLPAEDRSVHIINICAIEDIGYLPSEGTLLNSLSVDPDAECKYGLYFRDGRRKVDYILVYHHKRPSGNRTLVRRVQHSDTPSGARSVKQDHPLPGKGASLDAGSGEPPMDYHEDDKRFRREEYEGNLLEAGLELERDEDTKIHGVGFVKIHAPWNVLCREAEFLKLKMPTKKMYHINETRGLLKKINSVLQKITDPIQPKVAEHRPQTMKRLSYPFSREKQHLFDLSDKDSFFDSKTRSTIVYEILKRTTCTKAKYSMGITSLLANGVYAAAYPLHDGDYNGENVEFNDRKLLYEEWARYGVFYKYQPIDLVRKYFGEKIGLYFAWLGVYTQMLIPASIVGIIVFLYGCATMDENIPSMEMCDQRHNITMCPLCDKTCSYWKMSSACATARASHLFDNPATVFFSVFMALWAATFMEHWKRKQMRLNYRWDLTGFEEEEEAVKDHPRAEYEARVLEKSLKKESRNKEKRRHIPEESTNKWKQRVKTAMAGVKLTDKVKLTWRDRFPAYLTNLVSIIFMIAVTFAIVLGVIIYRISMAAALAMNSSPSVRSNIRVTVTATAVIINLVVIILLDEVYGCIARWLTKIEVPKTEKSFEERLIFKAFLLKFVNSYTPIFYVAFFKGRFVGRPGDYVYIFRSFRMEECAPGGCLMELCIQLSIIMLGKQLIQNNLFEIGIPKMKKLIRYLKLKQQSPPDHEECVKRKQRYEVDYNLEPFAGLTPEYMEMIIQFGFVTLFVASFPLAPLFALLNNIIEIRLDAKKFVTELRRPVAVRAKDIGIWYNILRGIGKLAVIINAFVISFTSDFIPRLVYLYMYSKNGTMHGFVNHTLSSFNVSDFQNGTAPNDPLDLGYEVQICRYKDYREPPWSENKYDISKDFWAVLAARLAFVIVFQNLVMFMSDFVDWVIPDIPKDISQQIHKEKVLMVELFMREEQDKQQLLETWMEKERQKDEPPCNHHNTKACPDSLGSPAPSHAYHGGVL", "sequence of UniProt P29597 (whole entry, looked up)": "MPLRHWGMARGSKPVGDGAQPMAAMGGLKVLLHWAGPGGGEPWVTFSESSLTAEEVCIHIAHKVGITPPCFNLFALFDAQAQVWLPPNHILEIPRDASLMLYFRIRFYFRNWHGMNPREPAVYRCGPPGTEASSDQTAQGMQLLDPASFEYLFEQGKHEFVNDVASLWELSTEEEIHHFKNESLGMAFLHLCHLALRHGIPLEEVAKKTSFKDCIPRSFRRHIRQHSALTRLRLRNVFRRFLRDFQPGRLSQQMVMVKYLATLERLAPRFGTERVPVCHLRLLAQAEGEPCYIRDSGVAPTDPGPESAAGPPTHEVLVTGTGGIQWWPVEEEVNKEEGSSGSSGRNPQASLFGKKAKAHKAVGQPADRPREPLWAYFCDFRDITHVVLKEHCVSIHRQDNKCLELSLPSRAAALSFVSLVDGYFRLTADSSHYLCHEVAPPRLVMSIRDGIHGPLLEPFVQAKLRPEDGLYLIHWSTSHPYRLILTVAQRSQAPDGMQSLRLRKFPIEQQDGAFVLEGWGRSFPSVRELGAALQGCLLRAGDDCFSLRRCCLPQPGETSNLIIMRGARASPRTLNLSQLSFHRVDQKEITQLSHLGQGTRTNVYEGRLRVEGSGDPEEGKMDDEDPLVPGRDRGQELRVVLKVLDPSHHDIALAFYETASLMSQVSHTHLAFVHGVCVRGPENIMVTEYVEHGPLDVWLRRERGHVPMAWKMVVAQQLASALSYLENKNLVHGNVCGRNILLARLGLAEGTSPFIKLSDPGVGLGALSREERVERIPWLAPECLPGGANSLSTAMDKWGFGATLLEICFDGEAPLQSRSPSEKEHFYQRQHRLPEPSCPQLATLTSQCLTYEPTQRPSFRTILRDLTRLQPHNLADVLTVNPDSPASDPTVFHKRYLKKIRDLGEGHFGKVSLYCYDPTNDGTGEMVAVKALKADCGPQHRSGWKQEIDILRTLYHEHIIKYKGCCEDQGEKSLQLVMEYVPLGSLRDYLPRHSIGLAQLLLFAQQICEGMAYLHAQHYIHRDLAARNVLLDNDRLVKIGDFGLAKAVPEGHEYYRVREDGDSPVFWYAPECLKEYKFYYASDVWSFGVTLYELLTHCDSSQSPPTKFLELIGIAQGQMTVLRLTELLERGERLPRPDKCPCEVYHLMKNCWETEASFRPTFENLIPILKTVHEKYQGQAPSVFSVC", "sequence of UniProt P23458 (whole entry, looked up)": "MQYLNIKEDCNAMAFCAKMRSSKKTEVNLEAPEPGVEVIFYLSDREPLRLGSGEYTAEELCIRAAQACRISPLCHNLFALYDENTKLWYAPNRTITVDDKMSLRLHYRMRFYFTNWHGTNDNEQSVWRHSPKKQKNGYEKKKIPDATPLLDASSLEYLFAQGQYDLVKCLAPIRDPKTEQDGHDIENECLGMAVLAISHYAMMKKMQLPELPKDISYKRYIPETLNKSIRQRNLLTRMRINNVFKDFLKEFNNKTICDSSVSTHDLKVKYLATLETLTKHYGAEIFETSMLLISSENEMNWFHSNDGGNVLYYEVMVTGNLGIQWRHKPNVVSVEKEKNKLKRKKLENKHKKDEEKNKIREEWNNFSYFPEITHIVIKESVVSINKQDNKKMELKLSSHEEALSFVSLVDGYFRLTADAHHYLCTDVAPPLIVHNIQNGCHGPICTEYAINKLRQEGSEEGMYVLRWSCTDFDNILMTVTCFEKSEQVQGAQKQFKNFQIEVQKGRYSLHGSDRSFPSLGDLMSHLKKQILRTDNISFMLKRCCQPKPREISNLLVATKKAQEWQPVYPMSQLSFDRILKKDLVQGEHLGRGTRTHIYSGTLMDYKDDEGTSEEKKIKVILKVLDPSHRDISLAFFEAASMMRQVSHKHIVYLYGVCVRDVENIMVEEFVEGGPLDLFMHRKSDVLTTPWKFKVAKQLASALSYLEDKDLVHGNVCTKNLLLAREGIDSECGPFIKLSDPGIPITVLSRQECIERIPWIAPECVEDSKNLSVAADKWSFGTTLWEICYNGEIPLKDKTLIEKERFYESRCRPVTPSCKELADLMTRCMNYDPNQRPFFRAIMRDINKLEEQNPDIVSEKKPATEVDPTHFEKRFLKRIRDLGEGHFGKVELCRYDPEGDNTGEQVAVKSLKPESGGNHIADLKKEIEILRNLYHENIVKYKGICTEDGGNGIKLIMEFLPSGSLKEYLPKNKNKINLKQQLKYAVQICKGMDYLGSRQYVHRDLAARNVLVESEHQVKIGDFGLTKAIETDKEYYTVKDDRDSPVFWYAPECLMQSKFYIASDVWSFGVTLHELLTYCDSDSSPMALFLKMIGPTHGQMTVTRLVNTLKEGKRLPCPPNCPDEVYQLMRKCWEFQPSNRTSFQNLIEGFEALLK", "sequence of UniProt P35590 (whole entry, looked up)": "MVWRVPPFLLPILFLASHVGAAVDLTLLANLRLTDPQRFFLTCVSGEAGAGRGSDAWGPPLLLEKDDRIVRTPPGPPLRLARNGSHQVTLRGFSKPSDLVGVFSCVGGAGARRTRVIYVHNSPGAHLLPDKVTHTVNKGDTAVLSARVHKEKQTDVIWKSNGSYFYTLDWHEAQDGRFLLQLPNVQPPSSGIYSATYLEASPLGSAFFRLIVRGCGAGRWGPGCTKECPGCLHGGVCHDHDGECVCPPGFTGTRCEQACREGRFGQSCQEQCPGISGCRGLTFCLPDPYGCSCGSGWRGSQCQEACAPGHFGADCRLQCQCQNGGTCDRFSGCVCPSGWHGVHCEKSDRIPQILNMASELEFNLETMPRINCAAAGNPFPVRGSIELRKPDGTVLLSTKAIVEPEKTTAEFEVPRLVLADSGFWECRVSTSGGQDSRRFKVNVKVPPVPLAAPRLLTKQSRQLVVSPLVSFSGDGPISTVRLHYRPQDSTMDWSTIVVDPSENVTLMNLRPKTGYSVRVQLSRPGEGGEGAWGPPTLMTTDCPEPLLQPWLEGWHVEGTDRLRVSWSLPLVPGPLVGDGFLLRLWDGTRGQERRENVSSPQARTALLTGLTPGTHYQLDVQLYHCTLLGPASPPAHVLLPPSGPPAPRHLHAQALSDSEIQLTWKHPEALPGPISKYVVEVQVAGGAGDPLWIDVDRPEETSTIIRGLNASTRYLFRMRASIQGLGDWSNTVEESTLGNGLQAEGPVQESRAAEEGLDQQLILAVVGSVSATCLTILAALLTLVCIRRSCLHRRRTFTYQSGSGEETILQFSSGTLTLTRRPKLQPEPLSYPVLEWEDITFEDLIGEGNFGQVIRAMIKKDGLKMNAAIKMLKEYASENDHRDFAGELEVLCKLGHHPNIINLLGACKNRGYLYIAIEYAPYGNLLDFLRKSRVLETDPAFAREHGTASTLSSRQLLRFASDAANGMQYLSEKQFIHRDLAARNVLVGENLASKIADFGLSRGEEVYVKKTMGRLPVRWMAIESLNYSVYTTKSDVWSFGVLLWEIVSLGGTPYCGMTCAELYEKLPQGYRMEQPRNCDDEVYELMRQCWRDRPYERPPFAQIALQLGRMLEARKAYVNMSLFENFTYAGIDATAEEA", "sequence of UniProt O75914 (whole entry, looked up)": "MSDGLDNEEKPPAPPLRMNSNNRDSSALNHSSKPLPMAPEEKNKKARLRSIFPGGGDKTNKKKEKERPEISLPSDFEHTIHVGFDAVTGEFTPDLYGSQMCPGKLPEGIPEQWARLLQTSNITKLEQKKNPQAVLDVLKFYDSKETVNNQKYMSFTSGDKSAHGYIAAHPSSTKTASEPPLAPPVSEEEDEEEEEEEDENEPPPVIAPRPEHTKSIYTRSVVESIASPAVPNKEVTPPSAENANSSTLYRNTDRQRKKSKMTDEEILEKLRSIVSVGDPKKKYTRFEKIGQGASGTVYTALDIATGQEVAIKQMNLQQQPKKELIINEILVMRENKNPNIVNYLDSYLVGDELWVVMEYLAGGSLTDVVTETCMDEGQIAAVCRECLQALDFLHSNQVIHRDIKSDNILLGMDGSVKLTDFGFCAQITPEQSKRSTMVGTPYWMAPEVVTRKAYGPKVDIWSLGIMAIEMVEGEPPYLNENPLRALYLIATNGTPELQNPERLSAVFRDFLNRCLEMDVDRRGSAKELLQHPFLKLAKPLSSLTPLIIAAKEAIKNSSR"}
{"data": "Block 1", "Compound": "O=C(NS(=O)(=O)c1ccc(NCC2CCOCC2)c([N+](=O)[O-])c1)c1ccc(N2CCN(Cc3ccc(C(F)(F)F)cc3-c3ccc(Cl)cc3)CC2)cc1Oc1cnc2[nH]ccc2c1", "observed": "cell-free assay", "method": "competition with immobilised ligand", "tested at": "1 µM"}
{"target": "ROS1 (Homo sapiens, UniProt P08922)", "remaining binding [%]": 87}
{"target": "MAPK10 (Homo sapiens, UniProt P53779)", "remaining binding [%]": 82}
{"target": "PAK3 (Homo sapiens, UniProt O75914)", "remaining binding [%]": 77}
{"target": "ULK3 (Homo sapiens, UniProt Q6PHR2)", "remaining binding [%]": 85}
{"target": "Non-receptor tyrosine-protein kinase TYK2, JH2 (TYK2, Homo sapiens, UniProt P29597)", "remaining binding [%]": 73}
{"target": "GRK7 (Homo sapiens, UniProt Q8WTQ7)", "remaining binding [%]": 78}
{"target": "Tyrosine-protein kinase JAK1, JH1 (JAK1, Homo sapiens, UniProt P23458)", "remaining binding [%]": 100}
{"target": "MTOR (Homo sapiens, UniProt P42345)", "remaining binding [%]": 100}
{"target": "LCK (Homo sapiens, UniProt P06239)", "remaining binding [%]": 100}
{"target": "Tyrosine-protein kinase ABL1, phosphorylated (ABL1, Homo sapiens, UniProt P00519, T315I)", "remaining binding [%]": 100}
{"target": "TIE1 (Homo sapiens, UniProt P35590)", "remaining binding [%]": 100}
{"data": "Block 2", "SMILES": "C=CCc1ccc(O)c(-c2ccc(O)c(CC=C)c2)c1", "observed": "chloride current"}
{"target": "Anoctamin-1 (ANO1, Homo sapiens, UniProt Q5XXA6, del476-501/R561A)", "method": "whole-cell voltage clamp", "setting": "membrane voltage -60 mV", "IC50": "6.54 µM"}
{"target": "Anoctamin-1 (ANO1, Homo sapiens, UniProt Q5XXA6, del476-501/R631K)", "mode": "inhibitor", "method": "whole-cell patch clamp", "setting": "300 nM Ca2+, 100 mV", "IC50": "8.6 µM"}
{"target": "Anoctamin-1 (ANO1, Homo sapiens, UniProt Q5XXA6, del476-501/F803A)", "method": "whole-cell voltage clamp", "setting": "membrane voltage -20 mV", "IC50": "12 µM"}
{"target": "Anoctamin-1 (ANO1, Homo sapiens, UniProt Q5XXA6, del476-501/F628I)", "mode": "inhibitor", "method": "whole-cell voltage clamp", "setting": "F602I mutant at 80 mV", "IC50": "9.17 µM"}
{"target": "Anoctamin-1 (ANO1, Homo sapiens, UniProt Q5XXA6, del476-501/F807W)", "mode": "inhibitor", "method": "whole-cell voltage clamp", "tested at": "80 mV holding voltage", "IC50": "10.8 µM"}
{"target": "Anoctamin-1 (ANO1, Homo sapiens, UniProt Q5XXA6, del476-501/F807I)", "mode": "inhibitor", "method": "whole-cell voltage clamp", "setting": "mutant F781I", "IC50": "7.5 µM"}
{"target": "Anoctamin-1 (ANO1, Homo sapiens, UniProt Q5XXA6, del476-501/F627A)", "method": "whole-cell voltage clamp", "setting": "membrane voltage 20 mV", "IC50": "6.28 µM"}
{"data": "Block 3", "species": "human", "medium": "microsomes or S9", "tested at": "2 µM", "time": "0.5 h"}
{"SMILES": "CC(=O)Nc1ccc(Nc2ncnc3c2cnn3-c2cccc(C)c2)cc1", "remaining compound [%]": 80.7}
{"SMILES": "Cc1ccc(N(CCO)C2=NS(=O)(=O)c3ccccc32)cc1", "remaining compound [%]": 29.1}
{"SMILES": "COc1ccc2[nH]cc(CCNC(=O)CCC(=O)N3Cc4cccn4-c4ccccc43)c2c1", "remaining compound [%]": 2.04}
{"SMILES": "C=C(C)C1Cc2c(C)nn(-c3cccc4ccccc34)c2C1 (stereo not shown)", "remaining compound [%]": 1.88}
{"SMILES": "O=C(c1ccc(Nc2nc3ccccc3n3nnnc23)cc1)N1CCc2ccccc2C1", "remaining compound [%]": 3.43}
{"SMILES": "CC(C)Oc1ccccc1NS(=O)(=O)c1cccc(S(=O)(=O)C2CCS(=O)(=O)C2)c1 (stereo not shown)", "remaining compound [%]": 27.4}
{"SMILES": "CN1CCN(c2ccc3[nH]c(-c4ccc5[nH]c(-c6ccc(O)cc6)nc5c4)nc3c2)CC1", "remaining compound [%]": 49.8}
{"data": "Block 4", "organism": "Sarcocystis neurona", "observed": "parasite activity", "tested at": "10 µM", "time": "96 h"}
{"SMILES": "O=C1CN(/N=C/c2ccc(-c3ccc([N+](=O)[O-])cc3)o2)C(O)=N1", "activity class": "active"}
{"SMILES": "COc1ccccc1OCCNCC(O)COc1cccc2[nH]c3ccccc3c12 (stereo not shown)", "activity class": "inactive"}
{"SMILES": "COc1ccc(OC)c(C(O)CNC(=O)CN)c1 (stereo not shown)", "activity class": "inactive"}
{"SMILES": "CCCCC1=NC2(CCCC2)C(=O)N1Cc1ccc(-c2ccccc2-c2nnn[nH]2)cc1", "activity class": "inactive"}
{"SMILES": "O=C1[C@H](CC[C@H](O)c2ccc(F)cc2)[C@@H](c2ccc(O)cc2)N1c1ccc(F)cc1", "activity class": "inactive"}
{"SMILES": "Cc1c(OCC(F)(F)F)ccnc1C[S+]([O-])c1nc2ccccc2[nH]1 (stereo not shown)", "activity class": "inactive"}
{"note": "Excerpt of the above (block 4):"}
{"SMILES": "O=C1CN(/N=C/c2ccc(-c3ccc([N+](=O)[O-])cc3)o2)C(O)=N1", "activity class": "active"}
{"SMILES": "COc1ccccc1OCCNCC(O)COc1cccc2[nH]c3ccccc3c12 (stereo not shown)", "activity class": "inactive"}
{"SMILES": "COc1ccc(OC)c(C(O)CNC(=O)CN)c1 (stereo not shown)", "activity class": "inactive"}
{"SMILES": "CCCCC1=NC2(CCCC2)C(=O)N1Cc1ccc(-c2ccccc2-c2nnn[nH]2)cc1", "activity class": "inactive"}
{"SMILES": "O=C1[C@H](CC[C@H](O)c2ccc(F)cc2)[C@@H](c2ccc(O)cc2)N1c1ccc(F)cc1", "activity class": "inactive"}
